Measured values of several laboratories.
Lines come from different studies, so protocols differ.

Structure (SMILES)	tested on	assay	test system	setting	measurement	result
CC[C@H](C)[C@H](NC(=O)[C@H](CCCCN)NC(=O)[C@H](CCCCN)NC(=O)[C@H](Cc1ccccc1)NC(=O)[C@@H](NC(=O)[C@@H](NC(=O)[C@H](CCCNC(=N)N)NC(=O)[C@H](Cc1ccccc1)NC(=O)[C@@H](NC(=O)[C@H](CCCCN)NC(=O)[C@H](CCCCN)NC(=O)[C@@H](N)CCSC)[C@@H](C)CC)C(C)C)[C@@H](C)CC)C(=O)N[C@@H](CC(C)C)C(=O)N[C@@H](CCCCN)C(=O)N[C@@H](CCCNC(=N)N)C(=O)N[C@@H](CC(C)C)C(=O)N[C@H](C(=O)N[C@H](C(=O)O)C(C)C)[C@@H](C)CC	Staphylococcus aureus	broth microdilution	GU-1 MRSA	20% fetal bovine serum	MIC	8 µg/mL
CN[C@H](CC(C)C)C(=O)N[C@H]1C(=O)N[C@@H](CC(N)=O)C(=O)N[C@H]2C(=O)N[C@H]3C(=O)N[C@H](C(=O)N[C@H](C(=O)O)c4cc(O)cc(O)c4-c4cc3ccc4O)[C@H](O)c3ccc(c(Cl)c3)Oc3cc2cc(c3O[C@@H]2O[C@H](CO)[C@@H](O)[C@H](O)[C@H]2O[C@H]2C[C@](C)(N)[C@H](O)[C@H](C)O2)Oc2ccc(cc2Cl)[C@H]1O	Staphylococcus aureus	–	MRSA strain 6	–	MIC	1 µg/mL
CC(C)(C)OCC1NC(=O)C(C(=O)NC(C(=O)NC2C(=O)N3C2SC(C)(C)C3C(=O)O)c2ccccc2)=C1O (centres unmarked)	Escherichia coli	broth microdilution	Keio mutant JW0587-1	18 h, enterobactin-related gene	MIC	25 µg/mL
COc1cc2c(Oc3ccc4[nH]c(C)cc4c3F)ccnc2cc1OCC1(N)CC1	–	–	paediatric recurrent refractory sarcoma	12 mg	grade 1 or 2 ALT elevation	54.5%
CN[C@H](CC(C)C)C(=O)N[C@H]1C(=O)N[C@@H](CC(N)=O)C(=O)N[C@H]2C(=O)NC3C(=O)N[C@H](C(=O)N[C@H](C(=O)NCCC[N+](C)(C)C)c4cc(O)cc(O)c4-c4cc3ccc4O)[C@H](O)c3ccc(c(Cl)c3)Oc3cc2cc(c3OC2OC(CO)C(O)[C@H](O)[C@@H]2O[C@H]2CC(C)(NCc3ccc(-c4ccc(Cl)cc4)cc3)[C@H](O)[C@H](C)O2)Oc2ccc(cc2Cl)[C@H]1O (some centres unmarked)	Enterococcus faecalis	–	VanA VRE BM_4166	no LTA, added: Mg2+ 100 µg/mL	MIC	1 µg/mL
CC(C)[C@H](NC(=O)[C@H](CCCNC(=N)N)NC(=O)[C@H](Cc1c[nH]c2ccccc12)NC(=O)[C@H](CCCNC(=N)N)NC(=O)[C@H](Cc1c[nH]c2ccccc12)NC(=O)[C@H](Cc1c[nH]c2ccccc12)NC(=O)[C@H](Cc1c[nH]c2ccccc12)NC(=O)[C@H](CCCNC(=N)N)NC(=O)[C@H](Cc1c[nH]c2ccccc12)NC(=O)[C@H](CCCNC(=N)N)NC(=O)CN)C(N)=O	Candida albicans	broth microdilution	CGMCC 2.209, RPMI 1640-MOPS	48 h, 30 °C, added: NaCl 150 mM	MIC	32 µM
CC(C)C[C@H](NC(=O)[C@H](C)NC(=O)[C@@H](NC(=O)[C@H](CCCNC(=N)N)NC(=O)[C@H](CC(C)C)NC(=O)[C@H](Cc1c[nH]c2ccccc12)NC(=O)[C@@H]1CCCN1C(=O)[C@@H](N)CCCCN)C(C)C)C(=O)N[C@@H](CS)C(=O)N1CCC[C@H]1C(=O)NCC(=O)O	Staphylococcus lentus	broth microdilution	S	–	MIC	64 µM
C[C@H](NC(=O)[C@H](CCCNC(=N)N)NC(=O)[C@H](Cc1c[nH]c2ccccc12)NC(=O)[C@H](CCCNC(=N)N)NC(=O)[C@H](Cc1c[nH]c2ccccc12)NC(=O)[C@H](Cc1c[nH]c2ccccc12)NC(=O)[C@H](Cc1c[nH]c2ccccc12)NC(=O)[C@H](CCCNC(=N)N)NC(=O)[C@H](Cc1c[nH]c2ccccc12)NC(=O)[C@H](CCCNC(=N)N)NC(=O)CN)C(N)=O	Candida albicans	broth microdilution	CGMCC 2.209, RPMI 1640-MOPS	48 h, 30 °C, added: NaCl 150 mM	MIC	8 µM
Cc1ncc([N+](=O)[O-])n1CCO	Prevotella spp.	–	–	–	MIC	0.25 to 2 µg/mL
CC(C)C[C@@H]1NC(=O)[C@@H](Cc2ccccc2)NC(=O)[C@H](CCN)NC(=O)[C@@H](NC(=O)[C@H](CCN)NC(=O)[C@@H](N)[C@@H](C)O)CCNC(=O)[C@H]([C@@H](C)O)NC(=O)[C@H](CCN)NC(=O)[C@H](CCN)NC1=O	Escherichia coli	checkerboard	mcr-1	concentration not given, added: rifampicin	MIC	0.75 µg/mL
CC1(C)SC2C(NC(=O)C(NC(=O)C3=C(O)C(Cc4ccsc4)NC3=O)c3ccccc3)C(=O)N2C1C(=O)O (centres unmarked)	Escherichia coli	broth microdilution	JW0790-2 fiu deletion mutant	ferric iron uptake gene	MIC	25 µg/mL
CC[C@H](C)[C@H](NC(=O)CN)C(=O)NCC(=O)N[C@@H](C)C(=O)N[C@H](C(=O)N[C@@H](CC(C)C)C(=O)N[C@@H](CCCCN)C(=O)N[C@H](C(=O)N[C@@H](CC(C)C)C(=O)N[C@H](C(=O)N[C@H](C(=O)NCC(=O)N[C@@H](CC(C)C)C(=O)N1CCC[C@H]1C(=O)N[C@@H](C)C(=O)N[C@@H](CC(C)C)C(=O)N[C@H](C(=O)N[C@@H](CO)C(=O)N[C@@H](Cc1c[nH]c2ccccc12)C(=O)N[C@H](C(=O)N[C@@H](CCCCN)C(=O)N[C@@H](CCCNC(=N)N)C(=O)N[C@@H](CCCCN)C(=O)N[C@@H](CCCNC(=N)N)C(=O)N[C@@H](CCC(N)=O)C(=O)N[C@@H](CCC(N)=O)C(N)=O)[C@@H](C)CC)[C@@H](C)CC)[C@@H](C)O)[C@@H](C)O)C(C)C)C(C)C	Lactiplantibacillus plantarum	–	7469, probiotic strain	24 h, 37 °C, tested up to 128 µM	MIC	128 µM
N=C(N)NCCC[C@H](NC(=O)[C@H](Cc1c[nH]c2ccccc12)NC(=O)[C@H](CCCNC(=N)N)NC(=O)[C@H](Cc1c[nH]c2ccccc12)NC(=O)[C@H](Cc1c[nH]c2ccccc12)NC(=O)[C@H](Cc1c[nH]c2ccccc12)NC(=O)[C@H](CCCNC(=N)N)NC(=O)[C@H](Cc1c[nH]c2ccccc12)NC(=O)[C@@H](N)CCCNC(=N)N)C(=O)N[C@@H](Cc1ccccc1)C(N)=O	Candida albicans	broth microdilution	58288, RPMI 1640-MOPS	48 h, 30 °C	MIC	8 µM
CC1(C)SC2C(NC(=O)C(NC(=O)C3=C(O)C(Cc4ccc([N+](=O)[O-])cc4)NC3=O)c3ccccc3)C(=O)N2C1C(=O)O (centres unmarked)	Escherichia coli	broth microdilution	JW0790-2 fiu deletion mutant	ferric iron uptake gene	MIC	25 µg/mL
CC[C@H](C)[C@H](NC(=O)[C@H](Cc1ccccc1)NC(=O)[C@@H](NC(=O)[C@H](CO)NC(=O)[C@@H](N)CCCNC(=N)N)[C@@H](C)CC)C(=O)N[C@@H](CCCCN)C(=O)N[C@@H](Cc1ccc(O)cc1)C(=O)N[C@@H](CCCCN)C(=O)N[C@@H](CO)C(=O)N[C@@H](CCCCN)C(=O)N1CCC[C@H]1C(=O)N[C@@H](Cc1ccccc1)C(=O)N[C@@H](CS)C(=O)N[C@@H](CCC(=O)O)C(=O)N[C@@H](CCCCN)C(=O)N[C@@H](CC(C)C)C(=O)N[C@@H](CC(C)C)C(=O)N[C@@H](CO)C(=O)N[C@@H](Cc1c[nH]c2ccccc12)C(=O)N[C@H](C(=O)N[C@@H](CCCCN)C(=O)N[C@@H](CO)C(=O)O)C(C)C	Staphylococcus haemolyticus	–	–	–	MIC	100 µg/mL
CC1(C)SC2C(NC(=O)C(NC(=O)C3=C(O)C4CCCN4C3=O)c3ccccc3)C(=O)N2C1C(=O)O (centres unmarked)	Escherichia coli	broth microdilution	JW0790-2 fiu deletion mutant	ferric iron uptake gene	MIC	25 µg/mL
CC(C)[C@H](NC(=O)[C@H](CCCNC(=N)N)NC(=O)[C@H](Cc1c[nH]c2ccccc12)NC(=O)[C@H](CCCNC(=N)N)NC(=O)[C@H](Cc1c[nH]c2ccccc12)NC(=O)[C@H](Cc1c[nH]c2ccccc12)NC(=O)[C@H](Cc1c[nH]c2ccccc12)NC(=O)[C@H](CCCNC(=N)N)NC(=O)[C@H](Cc1c[nH]c2ccccc12)NC(=O)[C@@H](N)CCCNC(=N)N)C(N)=O	Candida albicans	broth microdilution	alveolar fluid isolate, RPMI 1640-MOPS	48 h, 30 °C	MIC	16 µM
CSCC[C@H](NC(=O)[C@H](CC(C)C)NC(=O)[C@@H](NC(=O)[C@H](Cc1ccccc1)NC(=O)[C@H](CCCCN)NC(=O)[C@H](CCCNC(=N)N)NC(=O)[C@@H](NC(=O)[C@H](Cc1ccc(O)cc1)NC(=O)[C@H](CCCNC(=N)N)NC(=O)[C@@H](N)CCCNC(=N)N)C(C)C)C(C)C)C(=O)N[C@@H](CCCNC(=N)N)C(=O)O	Staphylococcus haemolyticus	–	–	–	MIC	50 µg/mL
CC(C)C[C@@H]1NC(=O)[C@H](Cc2ccccc2)NC(=O)[C@H](Cc2ccc(O)cc2)NC(=O)[C@H](CC(C)C)NC(=O)[C@H](CCC(=O)O)NC(=O)[C@H](Cc2ccccc2)NC(=O)[C@H](CCCNC(=N)N)NC(=O)[C@H](CCC(N)=O)NC(=O)[C@H](CC(C)C)NC(=O)[C@H](CC(=O)O)NC(=O)[C@@H]2CCCN2C(=O)[C@H](CCCCN)NC(=O)[C@H](C(C)C)NC(=O)[C@H](CC(N)=O)NC(=O)[C@H](Cc2ccc(O)cc2)NC(=O)[C@H]([C@@H](C)O)NC(=O)[C@@H](N)CSSC[C@@H](C(=O)O)NC(=O)[C@H]([C@@H](C)O)NC(=O)[C@H](C(C)C)NC(=O)[C@H]([C@@H](C)O)NC(=O)CNC1=O	Corynebacterium glutamicum	broth dilution	CGMCC strain	24 h	MIC	> 40 µM
N=C(N)NCCC[C@H](NC(=O)CN)C(=O)N[C@@H](Cc1c[nH]c2ccccc12)C(=O)N[C@@H](CCCNC(=N)N)C(=O)N[C@@H](Cc1c[nH]c2ccccc12)C(=O)N[C@@H](Cc1c[nH]c2ccccc12)C(=O)N[C@@H](Cc1c[nH]c2ccccc12)C(=O)N[C@@H](CCCNC(=N)N)C(=O)N[C@@H](Cc1c[nH]c2ccccc12)C(=O)N[C@@H](CCCNC(=N)N)C(=O)N[C@@H](Cc1ccccc1)C(N)=O	Candida albicans	broth microdilution	CGMCC 2.209, RPMI 1640-MOPS	48 h, 30 °C, added: KCl 4.5 mM	MIC	8 µM
CC1(C)SC2C(NC(=O)C(NC(=O)C3=C(O)C(Cc4ccco4)NC3=O)c3ccccc3)C(=O)N2C1C(=O)O (centres unmarked)	Escherichia coli	broth microdilution	isolate IU, CTX-M-14, TEM-1	no clavulanic acid	MIC	> 200 µg/mL
CC[C@H](C)[C@H](NC(=O)[C@H](CCCNC(=N)N)NC(=O)[C@H](Cc1c[nH]c2ccccc12)NC(=O)[C@H](CCCNC(=N)N)NC(=O)[C@H](Cc1c[nH]c2ccccc12)NC(=O)[C@H](Cc1c[nH]c2ccccc12)NC(=O)[C@H](Cc1c[nH]c2ccccc12)NC(=O)[C@H](CCCNC(=N)N)NC(=O)[C@H](Cc1c[nH]c2ccccc12)NC(=O)[C@@H](N)CCCNC(=N)N)C(N)=O	Candida albicans	broth microdilution	CGMCC 2.209, RPMI 1640-MOPS	48 h, 30 °C, added: ZnCl2 8 µM	MIC	16 µM
CC1(C)SC2C(NC(=O)C(NC(=O)C3=C(O)C(Cc4ccc(O)cc4)NC3=O)c3ccccc3)C(=O)N2C1C(=O)O (centres unmarked)	Escherichia coli	broth microdilution	isolate IU, CTX-M-14, TEM-1	no clavulanic acid	MIC	> 200 µg/mL
